Published values gathered from unrelated publications.
Each line is one published result; not all experiments were run side by side. Several values in a cell are separate wells, animals, samples, runs or records. ± gives the spread as reported.

`COc1ccc([C@H]2c3[nH]c4ccc(Cl)cc4c3CCN2C(=O)Oc2ccc(Cl)cc2)cc1` gave an inhibition of 35% (dermal fibroblast and PBMC co-culture; measured: soluble TNF-alpha; 0.1 µM, 48 h).
With `C[C@H]1CCC/C=C/[C@@H]2C[C@H](O)C[C@H]2[C@H](O)/C=C/C(=O)O1` the inhibition was 94.1% (BT-16; cell viability, MTT; 10 µM, 72 h).
`CC[C@H](C)[C@H](NC(=O)[C@H](CCCCN)NC(=O)[C@@H](NC(=O)[C@H](C)NC(=O)[C@H](CC(C)C)NC(=O)[C@H](CCCCN)NC(=O)[C@H](Cc1ccccc1)NC(=O)[C@H](CC(C)C)NC(=O)[C@H](Cc1c[nH]cn1)NC(=O)CNC(=O)[C@H](Cc1ccccc1)NC(=O)[C@@H](N)Cc1ccccc1)[C@@H](C)O)C(=O)N[C@H](C(=O)N1CCC[C@H]1C(=O)N[C@@H](CO)C(=O)N[C@@H](CC(C)C)C(=O)N[C@@H](Cc1ccccc1)C(=O)N[C@@H](CCC(N)=O)C(=O)N[C@@H](CS)C(N)=O)[C@@H](C)CC` has an EC50 of 20 µM (human red blood cells; pH 5.5; relative to: Triton X-100).
`Oc1ccc(C(c2ccc(O)cc2)(C(F)(F)F)C(F)(F)F)cc1` — result for “S phase cells”: 8.74 ± 0.78% (HepG2 spheroids; Hoechst flow cytometry; 1 µM, 96 h).
Under “normalized enrichment score”, `C/C=C(/C)C(=O)O[C@H]1C(C)=C2[C@H]([C@@H]1OC(=O)CCCCCCC)[C@@](C)(OC(C)=O)C[C@H](OC(=O)CCC)[C@@]1(O)[C@H]2OC(=O)[C@@]1(C)O` is recorded as 1.42 (HEK-293T; RNA-seq GSEA, measured: Hallmark estrogen response late; 500 nM, 6 h; direction not given).
The GI50 of `CC(C)N1CCC(NC2CCN(c3cccc(-c4cc5cc(F)ccc5[nH]4)c3)CC2)CC1` is reported as 1430 nM (NCI-H522).
`CN[C@@H]1C[C@H]2O[C@@](C)([C@@H]1OC)n1c3ccccc3c3c4c(c5c6ccccc6n2c5c31)C(=O)NC4` has a beat amplitude of 0% (iCell Cardiomyocytes (hiPSC-derived); xCELLigence Cardio impedance; concentration not given, 2 h; relative to: control).
For `CS(=O)(=O)c1ccc(-c2nnc(/C=C/c3nnc(-c4ccc(C#N)cc4)o3)n2-c2ccccc2Cl)nc1`, the EC50 was 0.0316 µM (Apc Q1405X mutant organoids; organoid area, live-cell imaging; mouse small intestinal organoids; 6 days, Tnks1 genotype Tnks1+/-).
`CN1CCN(S(=O)(=O)c2cc([N+](=O)[O-])ccc2N(CCOS(C)(=O)=O)CCOS(C)(=O)=O)CC1` has an IC50 of 12.7 nM (sample E T-ALL PDX cells; cell viability; ex vivo; 48 h).
For `COC(=O)/C(C)=C\C[C@@]12OC(C)(C)[C@@H]3C[C@@H](C=C4C(=O)c5c(O)c6c(c(CC=C(C)C)c5O[C@]431)O[C@](C)(CCC=C(C)C)C=C6)C2=O`, the activity score was 8.8 (human iPSC-derived cardiomyocytes; MyBP-C/MYH ratio, plate-normalised SD score; concentration not given, primary screen; direction not given).
`COc1ccc2c(c1)[nH]c1c(C)nccc12` gave a DNA methylation of 85.5% (DU-145; bisulfite pyrosequencing, measured: RASSF1A promoter CpG site 3; 10 µM, 16 h).
For `c1ccc2[nH]ccc2c1`, “mRNA level, LS mean” read 2.16 counts per million (HCT-8; RNA-seq, measured: IFITM10; concentration not given).
The EC50 of `CC[C@H](C)[C@H](NC(=O)[C@H](Cc1c[nH]c2ccccc12)NC(=O)[C@H](CO)NC(=O)[C@H](C)NC(=O)[C@H](CC(C)C)NC(=O)[C@H](C)NC(=O)[C@H](CC(C)C)NC(=O)[C@H](C)NC(=O)[C@H](CCC(=O)O)NC(=O)[C@H](C)NC(=O)[C@H](CCC(=O)O)NC(=O)[C@H](C)NC(=O)[C@H](CCC(=O)O)NC(=O)[C@H](C)NC(=O)[C@H](CC(C)C)NC(=O)[C@H](C)NC(=O)[C@H](CC(C)C)NC(=O)[C@H](Cc1c[nH]c2ccccc12)NC(=O)[C@H](Cc1c[nH]c2ccccc12)NC(=O)CN)C(=O)N[C@@H](CCCCN)C(=O)N[C@@H](CCCNC(=N)N)C(=O)N[C@@H](CCCCN)C(=O)N[C@@H](CCCNC(=N)N)C(=O)N[C@@H](CCC(N)=O)C(=O)N[C@@H](CCC(N)=O)C(=O)N[C@@H](CS)C(N)=O` is reported as 75 µM (human red blood cells; pH 5.5; relative to: Triton X-100).
With `COc1cc(CCC[P+](c2ccccc2)(c2ccccc2)c2ccccc2)c(OC)c2c1OCO2.[I-]` the TGI was -4.54 log M (NCI-H322M; SRB).
`Nc1ncc(-c2nc(N3CCOCC3)nc(N3CCOCC3)n2)c(C(F)F)n1` has a GI50 of 126 nM (Daoy; 72 h).
`CC[C@H](C)[C@H](NC(=O)[C@H](C)NC(=O)[C@H](CCCCN)NC(=O)[C@H](CC(C)C)NC(=O)[C@H](C)NC(=O)[C@@H](NC(=O)[C@H](Cc1c[nH]cn1)NC(=O)[C@H](CC(C)C)NC(=O)[C@@H](NC(=O)[C@@H](NC(=O)[C@H](CCCCN)NC(=O)[C@@H](NC(=O)[C@H](C)NC(=O)[C@H](CCCCN)NC(=O)[C@H](CCCCN)NC(=O)[C@H](Cc1ccccc1)NC(=O)[C@@H](NC(=O)[C@H](CCCCN)NC(=O)[C@H](CC(C)C)NC(=O)[C@H](Cc1ccccc1)NC(=O)[C@H](CO)NC(=O)[C@H](CCCCN)NC(=O)[C@H](Cc1c[nH]c2ccccc12)NC(=O)[C@@H](N)CCCCN)[C@@H](C)O)C(C)C)[C@@H](C)O)C(C)C)[C@@H](C)O)C(=O)N[C@@H](CO)C(=O)N[C@@H](CO)C(=O)N[C@@H](CS)C(N)=O` gave an EC50 of 22 µM (human red blood cells; pH 5.5; relative to: Triton X-100).
`Nc1ncnc2c1ncn2[C@@H]1O[C@@H]2COP(=O)(O)O[C@H]3[C@@H](O)[C@H](n4cnc5c(=O)[nH]cnc54)O[C@@H]3COP(=O)(O)O[C@H]2[C@H]1O`: “pathway fold enrichment” 11 (HFF-1; RNA sequencing, measured: Reactome R-HSA-1971475; downregulated pathway; relative to: Zika virus alone).
The activity score of `O=C1C2CC=CCC2C(=O)N1SC(Cl)(Cl)Cl` (stereo not drawn) is reported as 3.7 (human iPSC-derived cardiomyocytes; MyBP-C/MYH ratio, plate-normalised SD score; concentration not given, primary screen; direction not given).
With `CN1CCN(C2(CNC3CCN(c4cccc(-c5cc6cc(F)ccc6[nH]5)c4)CC3)CCC2)CC1` the GI50 was 300 nM (LOX IMVI).
`CCN(CC)c1ccc(C=NNC(=O)CSc2nc3ccccc3c(=O)n2Cc2ccc(S(N)(=O)=O)cc2)c(O)c1` gave a CC50 of > 100 µM (NCI-H522; NCI five-dose screen).
The GI50 of `COc1c(CCC[P+](c2ccccc2)(c2ccccc2)c2ccccc2)cc2c(c1OC)OCO2.[I-]` is reported as -4.93 log M (UO-31; SRB).
For `CC1=C(O)C(=O)C=C2C1=CC=C1[C@@]2(C)CC[C@@]2(C)[C@@H]3C[C@](C)(C(=O)O)CC[C@]3(C)CC[C@]12C`, the optical density was 0.963 a.u. and 0.905 a.u. and 0.887 a.u. and 0.888 a.u. and 0.672 a.u. and 0.739 a.u. (HepG2; cell viability, CCK-8; 2 µM; higher = more viable cells).
`C=CC(=O)N[C@H]1C=C(C)c2c(-c3cnc4ccccc4c3)c3c(N)ncnc3n2C1` has a selectivity ratio of 0.547 (NCI-H2073 EGFR ASV knock-in; cell proliferation, CellTiter-Glo; relative to: knock-in over parental NCI-H2073).
With `COCCCn1c(N)c(C(=O)NC2CCCC2)c2nc3ccccc3nc21` the viability was 129% (HBL-1; 0.5 µM, 120 h).
For `O=c1cc(-c2ccccc2)oc2c(O)c(O)ccc12`, “neurite process number” read 3.5 to 3.6 (induced SH-SY5Y Aβ-GFP cells; 5 µM).
`O=C(N/N=C/c1ccc([N+](=O)[O-])o1)c1cc([N+](=O)[O-])cc([N+](=O)[O-])c1O` gave an activity score of 3.6 (human iPSC-derived cardiomyocytes; MyBP-C/MYH ratio, plate-normalised SD score; concentration not given, primary screen; direction not given).
`COc1c(C)c2c(c(O)c1C/C=C(\C)CCC(=O)O)C(=O)OC2` gave an IC50 of 204 nM (Granta-519; cell proliferation; blood cancer).
`CC(C)(C)c1cc(C=C(C#N)C#N)cc(Br)c1O` has an inhibition of 23% (HeLa expressing Ub(G76V)-GFP; Ub(G76V)-GFP degradation, inhibitor, cycloheximide chase; 12 µM).
With `CC(C)(C)C(=O)C(Oc1ccc(Cl)cc1)n1cncn1` (stereo not drawn) the activity score was 3.6 (human iPSC-derived cardiomyocytes; MyBP-C/MYH ratio, plate-normalised SD score; concentration not given, primary screen; direction not given).
`O=S(=O)(c1ccc(O)cc1)c1ccc(O)cc1` — result for “G2 phase cells”: 18.4 ± 4.21% (HepG2 spheroids; Hoechst flow cytometry; 10 µM, 96 h).
`CCCCCCCCCc1ccc(O)cc1` gave an activity score of 8.8 (human iPSC-derived cardiomyocytes; MyBP-C/MYH ratio, plate-normalised SD score; concentration not given, primary screen; direction not given).
`Cc1cc(C(C)(C)c2ccc(O)c(C)c2)ccc1O`: “S phase cells” 9.02 ± 1.84% (HepG2 spheroids; Hoechst flow cytometry; 1 µM, 96 h).
The viability of `CN1C(=O)[C@@]23C[C@]4([C@]56C[C@@]78SS[C@@](CO)(C(=O)N7[C@H]5Nc5ccccc56)N(C)C8=O)c5ccccc5N[C@@H]4N2C(=O)[C@]1(CO)SS3` is reported as 0.383% (HBL-1; 0.5 µM, 120 h).
For `O=C1N(Cc2ccccc2Cl)c2ccccc2C12NN=C(c1ccccc1)S2` (stereo not drawn), the fold change was 1.56 (MDA-MB-468; gene expression array, measured: PHIP mRNA; 10 µM, 12 h; relative to: untreated, down).
For `CCC(=O)CCCCC[C@@H]1NC(=O)[C@H]2CCCCN2C(=O)[C@H]([C@@H](C)CC)NC(=O)[C@H](Cc2cn(OC)c3ccccc23)NC1=O`, the viability was 1.39% (HBL-1; 0.5 µM, 120 h).
`C[C@]12CC[C@H](O)C[C@H]1CC[C@@H]1[C@@H]2CC[C@]2(C)[C@@H](c3ccc(=O)oc3)CC[C@]12O` gave a mRNA level of 1.88 and 1.8 and 1.84 (MCF7; RT-qPCR, measured: AGR2; 20 nM, 48 h, unit not given, added: estradiol; relative to: untreated).
